Measurements collected from several papers.
Compare with care: the assays were run in different laboratories. Several values in a cell are separate wells, animals, samples, runs or records. ± gives the spread as reported.

For COc1ccc(F)cc1C(=O)NCc1ccc(-c2nn([C@@H](C)C(F)(F)F)c(N)c2C(N)=O)cc1, the Cmax was 4480 ng/mL (human, plasma; oral, 200 mg single dose, alone arm, rifampin interaction study).
For CC(C)n1c(Nc2cccnc2)nc2cnc(Nc3ccc(N4CCN(C)CC4)cc3)nc21, the Cmax was 74.5 ng/mL (human, male, plasma; oral, 150 mg, day 15, added: rifampin 600 mg daily).
For Nc1ccc(-c2nc([C@H]3CCc4cc(-c5cc(Cl)ccc5-n5cnnn5)cc(=O)n43)c(F)[nH]2)c(F)n1, the Cmax was 3700 ng/mL (human, plasma; oral, 250 mg once daily, day 14).
For Cc1ncc(CO)c(C(=O)O)c1O, the Cmax was 2.9 ± 1 ng/mL (human males, Japanese, plasma; concentration not given, endogenous baseline level).
For CO[C@H]1/C=C/O[C@@]2(C)Oc3c(C)c(O)c4c(O)c(c(/C=N/N5CCN(C)CC5)c(O)c4c3C2=O)NC(=O)/C(C)=C\C=C\[C@H](C)[C@H](O)[C@@H](C)[C@@H](O)[C@@H](C)[C@H](OC(C)=O)[C@@H]1C, the Cmax was 7450 ng/mL (healthy human subjects, plasma; oral, dose not given, compound alone once daily).
With Cn1ncnc1[C@H]1c2n[nH]c(=O)c3cc(F)cc(c23)N[C@@H]1c1ccc(F)cc1 the Cmax was 19.1 ng/mL (human patients, plasma; oral, 600 µg/m2 twice daily day 1, day 5, dose level DL6, median, added: temozolomide 55 mg/m2 daily days 2-6).
For O=C(O)CCCCCCCCCCC(=O)O, the Cmax was 79.7 ± 10.7 nM (human, plasma; concentration not given, endogenous baseline diurnal).
For CCOc1c([C@H](C)n2nc(C)c3c(N)ncnc32)cc(Cl)c(F)c1[C@@H]1CNC(=O)C1, the Cmax was 2260 nM (human patients, plasma; oral, 30 mg, day 1).
The Cmax of N#Cc1cc(NC(=O)[C@H]2c3ccccc3C(=O)N(CC(F)(F)F)[C@@H]2c2cccnc2)ccc1F is reported as 1650 ng/mL (human, plasma; oral, 1200 mg, median).
With N#Cc1ccc2c(c1)[C@H]1CCCN(C(=O)c3ccc4[nH]cnc4c3)[C@H]1C2 the Cmax was 14300 nM (human, plasma; oral, 240 mg once daily, after first dose).
C=CC(=O)N(C)CCOc1c(N)ncnc1-c1cc(F)cc(NC(=O)c2ccc(C3CC3)cc2F)c1C gave a Cmax of 24.8 ng/mL (human, whole blood; oral, 15 mg, single ascending dose, fasted).
For Cc1noc(C)c1-c1cc(C(O)(c2ccccn2)c2ccccn2)c2nc(C3CC3)[nH]c2c1, the Cmax was 367 ng/mL (human male patients, fasted, plasma; oral, 4 mg once daily, cycle 1 day 8).
Cc1cn(C(=O)c2c(-c3c(Cl)cc(Cl)cc3Cl)noc2C(C)(C)F)c2cccc(/C=C/C(=O)O)c12 has a Cmax of 10400 ng/mL (human patients; 125 mg bid, cycle 8 day 1).
CC1(COc2ccc3c(c2)ncn3-c2ccc3cccc(N4CCC(N)CC4)c3n2)COC1 gave a Cmax of 3830 nM (human patients, recurrent/progressive HGG or DIPG, serum; oral, 220 mg/m^2, day 28, median).
CC#CC(=O)N1CCC[C@H]1c1nc(-c2ccc(C(=O)Nc3ccccn3)cc2)c2c(N)nccn12 gave a Cmax of 649 ng/mL (human, plasma; oral, 50 mg twice daily dosing, added: itraconazole 200 mg).
CN(C)CCC[C@@]1(c2ccc(F)cc2)OCc2cc(C#N)ccc21 gave a Cmax of 52.2 ng/mL (human; intramuscular, dose not given).
C#C[C@]1(O)CC[C@H]2[C@@H]3CCC4=CC(=O)CC[C@@H]4[C@H]3CC[C@@]21CC has a Cmax of 2.24 ng/mL (human female, plasma; single dose oral contraceptive, added: ritlecitinib 50 mg once daily multiple doses).
NC1(C(=O)N[C@@H](CCO)c2ccc(Cl)cc2)CCN(c2nc[nH]c3nccc2-3)CC1 has a Cmax of 349 ng/mL and 488 ng/mL and 872 ng/mL (human, plasma; concentration not given).
CC(C)c1nc(N(C)S(C)(=O)=O)nc(-c2ccc(F)cc2)c1/C=C/[C@@H](O)C[C@@H](O)CC(=O)O gave a Cmax of 6.09 ng/mL (human, plasma; oral, 20 mg, day 2, mean, alone).
The Cmax of COc1nnc2ccc(N3CCC(c4ccc(OCCN5CCN(C)C(=O)[C@H]5C)cc4)CC3)nn12 is reported as 232 nM (human, plasma; oral, 40 mg once daily, single dose, monotherapy).
With COc1ccc([C@@H](O)c2cc(-c3ncnc4cc(N5CCOCC5)ccc34)c(F)cc2Cl)nn1 the Cmax was 265 ng/mL (healthy human volunteers, plasma; oral, 100 mg single dose, tablet, fasted, geometric mean).
CC(=O)N(C)[C@H]1CCN(C(=O)c2cnc3c(c2)C[C@](C)(c2ccc(F)cc2)N3)C1 has a Cmax of 1460 nM (human, male, plasma; oral, 60 mg once daily, geometric mean).
N[C@]1(C(=O)O)[C@H]2[C@@H](C[C@@H]1F)[C@@H]2C(=O)O has a Cmax of 88.5 ng/mL (human, both sexes, plasma; oral, 20 mg, fasted, single dose).
C[C@H](Oc1ccc(Br)cc1-c1ccon1)C(=O)O has a Cmax of 9640 ng/mL (LC-MS/MS, non-compartmental; human, plasma; 200 mg once daily, day 1, multiple ascending dose, mean).
The Cmax of Cn1cnc2c(F)c(Nc3ccc(Br)cc3Cl)c(C(=O)NOCCO)cc21 is reported as 725 ng/mL (human ESRD on haemodialysis; oral, 50 mg, after dialysis).
The Cmax of Cc1nc(-c2ccc(OCC(C)C)c(C#N)c2)sc1C(=O)O is reported as 540 ng/mL (human, plasma; oral, 20 mg once daily, added: verinurad 10 mg).
The Cmax of CC(=O)O[C@H]1C(=O)[C@@]2(C)[C@H]([C@H](OC(=O)c3ccccc3)[C@]3(O)C[C@H](OC(=O)[C@H](O)[C@@H](NC(=O)c4ccccc4)c4ccccc4)C(C)=C1C3(C)C)[C@]1(OC(C)=O)CO[C@@H]1C[C@@H]2O is reported as 2230 ng/mL (noncompartmental analysis; human cancer patients, plasma; intravenous infusion, 80 mg/m^2, cycle 1 day 1, added: daily oral co-medication).
For COc1cc([C@H]2Oc3ccc([C@H]4Oc5cc(O)cc(O)c5C(=O)[C@@H]4O)cc3O[C@@H]2CO)ccc1O, the Cmax was 510 nM (OATP1B1/1B3 humanized mice, plasma; oral gavage, 500 mg/kg silymarin).
For CC(C)NC(=O)COc1cccc(-c2nc(Nc3ccc4[nH]ncc4c3)c3ccccc3n2)c1, the Cmax was 2130 ng/mL (human, male, fed, plasma; oral, 200 mg, day 3, adjusted geometric mean).
CC(C)(Sc1ccncc1-c1ccc(C#N)c2ccccc12)C(=O)O has a Cmax of 13.2 ng/mL (human, plasma; oral, 5 mg once daily, added: febuxostat 20 mg).
For Cc1cc(Nc2cc3ncccc3c(N[C@@H]3C[C@H]4CC[C@@H](C3)N4CCC#N)n2)n[nH]1, the Cmax was 12.1 ng/mL (human, plasma; 270 mg, day 14, geometric mean).
The Cmax of COc1ccc2nc([S@@+]([O-])Cc3ncc(C)c(OC)c3C)[nH]c2c1 is reported as 108 ng/mL (human, dried blood spots; oral, 10 mg omeprazole, control arm).
With NC(CO)(CO)CCc1ccc(Sc2cccc(OCc3ccccc3)c2)cc1Cl the Cmax was 1.21 ng/mL (human, fed, whole blood; oral, 3 mg, geometric mean, alone).
The Cmax of CCCOc1ccc([C@H]2CNC(=O)N2c2ccc3[nH]cnc3c2)cc1 is reported as 66.1 ng/mL (human elderly fasted, CSF; oral, 500 mg twice daily tablet, day 11, geometric mean).
For Cn1cc(-c2ccc(S(=O)(=O)[C@@H]3C[C@@H](C(=O)NC4(C#N)CC4)N(C(=O)C4(C(F)(F)F)CC4)C3)c(C(F)(F)F)c2)cn1, the Cmax was 1380 ng/mL (noncompartmental analysis; human, plasma; oral, 200 mg, day 1, with food, geometric mean).
Cn1nc2c(=O)n(C3CC3)cnc2c1[C@](O)(c1cnc(C(F)(F)F)c(Cl)c1)C(F)(F)F gave a Cmax of 1460 nM (humanized SCID mice, blood; 3 mg/kg once daily, 6 days, infected).
With N[C@@H]1c2cccnc2[C@H](OC(=O)N2CCC(n3c(=O)[nH]c4ncccc43)CC2)CC[C@H]1c1cccc(F)c1F the Cmax was 806 ng/mL (human, plasma; oral, 75 mg single dose, alone, geometric mean, itraconazole DDI study).
The Cmax of COc1cc(Nc2c(C#N)cnc3cc(OCCCN4CCN(C)CC4)c(OC)cc23)c(Cl)cc1Cl is reported as 24.6 ng/mL (item: total drug; human, severe hepatic impairment, plasma; single dose, NCI classification).
COc1ccnc(C[S+]([O-])c2nc3ccc(OC(F)F)cc3[nH]2)c1OC (stereo not drawn) has a Cmax of 3700 ng/mL (human, plasma; intravenous, dose not given, median).
Nc1c2c(cc3c1CCC3)CCC2 has a Cmax of 21.8 ng/mL (human, plasma; oral, 450 mg of GDC-2394, single ascending dose).
The Cmax of Nc1ccn([C@@H]2O[C@H](CO)[C@@H](O)[C@@H]2O)c(=O)n1 is reported as 82.9 ng/mL (human; subcutaneous, 20 mg, cycle 1 day 2, given alone).
Cc1ccc(C(=O)N(CCCN)C(c2nc3snc(C)c3c(=O)n2Cc2ccccc2)C(C)C)cc1 (stereo not drawn) gave a Cmax of 11.3 ng/mL (human patients, plasma; intravenous, 2 mg/day, day 3 of induction course, geometric mean).
N#Cc1ccc(C(c2ccc(C#N)cc2)n2cncn2)cc1 gave a Cmax of 31.6 ng/mL (human; 125 mg).
The Cmax of C#C[C@]1(CO)O[C@@H](n2cnc3c(N)nc(F)nc32)C[C@@H]1O is reported as 1050 nM (human, plasma; oral, 30 mg, single dose, geometric mean).
COC(=O)N[C@@H](C)CNc1nccc(-c2cn(C(C)C)nc2-c2cc(Cl)cc(NS(C)(=O)=O)c2F)n1 gave a Cmax of 3240 ng/mL (human patients, plasma; oral, 450 mg twice daily, day 14, steady state, geometric mean, added: binimetinib 45 mg once daily).
C=CC(=O)NC1CCN(c2ncc3ncnc(Nc4ccc(Oc5ccc6c(c5)ncn6C)c(C)c4)c3n2)CC1 has a Cmax of 213 nM (human, male, plasma; oral, 30 mg, fed, adjusted geometric mean).
For CC1=C(c2cccc(O)c2)[C@H](c2ccc(OCCN3CC(CF)C3)cc2)Oc2ccc(O)cc21, the Cmax was 158 ng/mL (human, plasma; oral, 1000 mg once daily, steady state geometric mean).
O=C(c1cc(Cc2n[nH]c(=O)c3ccccc23)ccc1F)N1CCN(C(=O)C2CC2)CC1 gave a Cmax of 1350 ng/mL (human, plasma; oral, 25 mg, cycle 1 day 0, dose level -1).

Some of these lines once more:
The Cmax of Cn1cnc2c(F)c(Nc3ccc(Br)cc3Cl)c(C(=O)NOCCO)cc21 is reported as 725 ng/mL (human ESRD on haemodialysis; oral, 50 mg, after dialysis).
For Cc1cc(Nc2cc3ncccc3c(N[C@@H]3C[C@H]4CC[C@@H](C3)N4CCC#N)n2)n[nH]1, the Cmax was 12.1 ng/mL (human, plasma; 270 mg, day 14, geometric mean).
NC1(C(=O)N[C@@H](CCO)c2ccc(Cl)cc2)CCN(c2nc[nH]c3nccc2-3)CC1 has a Cmax of 349 ng/mL and 488 ng/mL and 872 ng/mL (human, plasma; concentration not given).
With COc1ccc([C@@H](O)c2cc(-c3ncnc4cc(N5CCOCC5)ccc34)c(F)cc2Cl)nn1 the Cmax was 265 ng/mL (healthy human volunteers, plasma; oral, 100 mg single dose, tablet, fasted, geometric mean).
The Cmax of N#Cc1cc(NC(=O)[C@H]2c3ccccc3C(=O)N(CC(F)(F)F)[C@@H]2c2cccnc2)ccc1F is reported as 1650 ng/mL (human, plasma; oral, 1200 mg, median).
